Results gathered from unrelated publications.
Numbered parts are unrelated; each lists some results of a single study. Changes are numbered by the printed parent chain.

Sample 1 — target: CCNB1, cyclin fold, Cln2 fusion (human); method: yeast growth competition, sequencing; matrix: yeast; setting: strong parent motif; baseline: not given; direction: higher = stronger binding
Starting sequence: viral docking peptide; TSVRRALFTGGSD; partner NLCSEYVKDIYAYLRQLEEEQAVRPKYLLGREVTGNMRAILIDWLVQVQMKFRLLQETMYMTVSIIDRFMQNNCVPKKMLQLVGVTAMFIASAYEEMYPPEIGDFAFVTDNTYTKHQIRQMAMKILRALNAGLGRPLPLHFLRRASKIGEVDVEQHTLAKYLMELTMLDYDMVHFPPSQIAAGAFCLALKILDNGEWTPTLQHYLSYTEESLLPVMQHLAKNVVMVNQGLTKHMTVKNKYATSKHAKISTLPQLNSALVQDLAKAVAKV
Change | normalised enrichment score
L7M | 0.403
L7G | -0.167
F8Q | 0.41
S12T | 1.99
V3R | 0.813
A6C | 2.17
S2C | 2.05
R4W | 0.0527
L7R | 0.418
G10F | 1.07
G10L | 1.28
S2A | 1.29
G11Y | 1.58
S2D | 2.45

Sample 2 — method: aptamer microarray, sandwich; molecule type: DNA with 2'F-ANA; matrix: in vitro; tested at: 200 nM; with: Cy3 exosite-II aptamer, 400 nM; direction: higher = stronger binding; oligonucleotide: GGTTGGTGTGGTTGG
Target: Prothrombin, mature alpha-thrombin (F2, Homo sapiens, UniProt P00734)
Setting: whole 15-mer aptamer, many near background
Modification | mean fluorescence intensity [a.u.]
2'F-ANA at 8 10 11 14 | 97.9
2'F-ANA at 1 8 9 11 14 | 53.9
2'F-ANA at 2 3 5 8 11 12 13 14 15 | 63.8
2'F-ANA at 2 3 6 8 9 12 14 | 472
2'F-ANA at 4 7 8 11 12 14 15 | 143
2'F-ANA at 1 3 11 14 | 81.5
2'F-ANA at 1 6 7 8 9 11 13 14 | 55.7
2'F-ANA at 1 3 5 7 11 | 53.7

Sample 3 — method: protein-binding microarray; molecule type: hairpin DNA; matrix: in vitro; tested at: not given; baseline: not given; direction: higher = stronger binding
Target: Interferon regulatory factor 1, DNA-binding domain (IRF1, Homo sapiens, UniProt P10914, residues 1-114)
Setting: whole hairpin DNA, median over replicate spots
Target sequence (chain): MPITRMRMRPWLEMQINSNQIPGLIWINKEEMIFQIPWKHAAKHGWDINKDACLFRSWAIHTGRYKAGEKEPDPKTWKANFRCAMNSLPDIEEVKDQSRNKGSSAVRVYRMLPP
Oligonucleotide | median fluorescence
GAGGCCCGAAAGCGAAACGCCTCCTGGCGTTTCGCTTTCGGGCCTCACAC (5mC at 33 39) | 949 a.u.
GAGGCCCGAACGCGAAACGCCTCCTGGCGTTTCGCGTTCGGGCCTCACAC | 572 a.u.
GAGGCCCCGAAGCGAAACGCCTCCTGGCGTTTCGCTTCGGGGCCTCACAC (5mC at 8) | 578 a.u.
GAGGCCCGAAAGTGAACGGCCTCCTGGCCGTTCACTTTCGGGCCTCACAC (5mC at 17 29) | 530 a.u.
GAGGCCCGAAAGCGAGACGCCTCCTGGCGTCTCGCTTTCGGGCCTCACAC (5mC at 31) | 553 a.u.
GAGGCCCGGAAGCGAAACGCCTCCTGGCGTTTCGCTTCCGGGCCTCACAC (5mC at 38) | 592 a.u.
GAGGCCCGAAAGCGAACGGCCTCCTGGCCGTTCGCTTTCGGGCCTCACAC (5mC at 29) | 552 a.u.
GAGGCCCCGAAGTGAAACGCCTCCTGGCGTTTCACTTCGGGGCCTCACAC (5mC at 38) | 582 a.u.

Mixed results
Sequence | target | read-out | molecule type | tested at | measurement | result
DRLASTVIY | HLA class I histocompatibility antigen, A alpha chain, allele A*25:01 (Homo sapiens, UniProt P04439) | peptide-MHC binding | peptide | concentration not given | binding | inactive

Excerpt of the above (sample 1):
Change | normalised enrichment score
S12T | 1.99
V3R | 0.813
